Measurements of several laboratories.
Compare with care: the assays were run in different laboratories. Values joined by “and” are separate records of one study, mostly repeats; a detail may differ. ± marks the error that the study gave.

Under “maximum prothrombin time prolongation”, `O=C(NC[C@H]1CN(c2ccc(N3CCOCC3=O)cc2)C(=O)O1)c1ccc(Cl)s1` is recorded as 8.26 (human mild renal impairment, plasma; 10 mg, mean, unit not given; baseline: baseline).
`Nc1ccc(CNc2ccncc2)c(F)c1`: “mean arterial pressure increase” 43% (male Wistar rat, reserpine-pretreated; intravenous, 270 µg/kg, 5 min, anaesthetized; baseline: baseline).
With `CN(C)C(=O)Oc1cccc([N+](C)(C)C)c1` the train-of-four ratio was 96.6 (neuromuscular block reversal; rat; dose not given, 14.5 (unit not given), added: cisatracurium; baseline: T1 twitch).
For `CC(C)C[C@H](NC(=O)[C@H](CC(C)C)NC(=O)C(C)(C)NC(=O)[C@@H](NC(=O)[C@H](CCC1CCCCC1)NC(=O)[C@@H]1C[C@H](C)CN1C(=O)c1ccc(F)cc1)[C@H](O)C(C)C)C(=O)NC(C)(C)C(=O)NC(C)(C)C(=O)NCCC(=O)N[C@@H](C)CN(C)C`, the calcein leakage was 22.5% (small unilamellar vesicles; concentration not given).
`C[C@H]1C[C@H]2CSC(N)=N[C@@]2(c2nc(NC(=O)c3ccc(OC(F)F)cn3)cs2)CO1` — result for “percent change from baseline”: -47.8% (measured: total Aβ; healthy adults, plasma; 40 mg single dose, 8 h post-dose; baseline: placebo).
With `C[C@@H](O)CCOC(=O)C[C@@H](C)O` the metabolite level was 8.12 ± 0.34 µmol/L (measured: Gly; human, plasma; 60 min, log2-transformed values).
Under “plasma protein level change”, `CCOc1c([C@H](C)n2nc(C)c3c(N)ncnc32)cc(Cl)c(F)c1[C@@H]1CNC(=O)C1` is recorded as 237% (Olink proximity extension proteomics, measured: TMPRSS15; human FL or MZL patients, plasma; dose not given, week 8; baseline: baseline).
`CO[C@@H]1[C@@H](OC(N)=O)[C@@H](O)[C@H](Oc2ccc3c(O)c(NC(=O)c4ccc(O)c(CC=C(C)C)c4)c(=O)oc3c2C)OC1(C)C` gave a colony survival of 94.2% and 109% and 83.5% and 91.3% and 88.6% (Brca1 cc/cc MEFs, mouse; 12.5 µM).
The percent change of `NC(=O)c1cnc2[nH]ccc2c1N[C@@H]1[C@@H]2CC3C[C@H]1C[C@@](O)(C3)C2` is reported as 0.02% (CD4+ central memory T cells, flow cytometry; Japanese humans, peripheral blood; 20 mg single dose; baseline: baseline).
The inhibition of `CSCCNc1nc(SCCC(F)(F)F)nc2c1ncn2[C@@H]1O[C@H](COP(=O)(O)OP(=O)(O)C(Cl)(Cl)P(=O)(O)O)[C@@H](O)[C@H]1O` is reported as 41.7 ± 22.2% (ADP-induced platelet aggregation, LTA; human patients, platelet-rich plasma; dose not given, 1 h, added: ADP 5 µM).
`C[C@H]1O[C@@H](O[C@H]2CC[C@@]3(C)[C@@H](CC[C@]4(C)[C@@H]3C=C[C@]35OC[C@@]6(CCC(C)(C)C[C@H]63)[C@@H](O)C[C@]54C)[C@]2(C)CO)[C@H](O)[C@@H](O[C@@H]2O[C@H](CO)[C@@H](O)[C@H](O)[C@H]2O)[C@H]1O` has an AST activity of 35.5 U/L and 37.5 U/L and 44.5 U/L and 39 U/L and 45.2 U/L (pair-fed control mice, no ethanol, plasma; oral, 15 mg/kg/day).
Under “p4EBP1 change from baseline”, `CO[C@H]1CC[C@H](N2C(=O)CNc3ncc(-c4ccc(C(C)(C)O)nc4)nc32)CC1` is recorded as -1.7% (flow cytometry; stimulated T cells, human, blood; 45 mg single dose, 24 h, mean; baseline: baseline).
For `O=C1Nc2cc3[nH]nc(-c4ccncc4)c3cc2CN1Cc1ccccc1`, “partial response, best response” read 0% (RECIST v1.1; human, relapsed or refractory advanced solid tumours; intravenous, 3.6 mg/kg, pooled schedules).
`Cc1cc(C)n(Cc2ccc(C(=O)NC3CS(=O)(=O)c4ccccc43)cc2)n1` (stereo not shown) gave an IC50 of greater than 125 µM (CoA-CPM signal reduction, CPM fluorescence thiol; cell-free biochemical; assay interference counter-screen, added: CoA replacing acetyl-CoA).
With `CC1(C)CCC(CN2CCN(c3ccc(C(=O)NS(=O)(=O)c4ccc(NCC5CCOCC5)c([N+](=O)[O-])c4)c(Oc4cnc5[nH]ccc5c4)c3)CC2)=C(c2ccc(Cl)cc2)C1` the EC50 was 1.1 µM (cell kill; primary neoplastic B cells, dog 24; 24 h, unspecified B-cell neoplasm).
For `CC(C)NCC(O)c1ccc(O)c(O)c1` (stereo not shown), the sarcomere length was 1.72 µm (ventricular cardiomyocytes, C57BL/6 mouse; dose not given, 0.716 s).
For `c1ccc(-c2n[nH]cc2-c2ccnc3ccccc23)nc1`, “log2 fold change” read 0.881 (kinase binding, competitor, MIB/MS competition, measured: SSK2; Candida albicans cell lysate; 1 µM; baseline: DMSO).
`CC1(C)C=C(CNc2ccc3c(c2)Cc2cc(Br)ccc2-3)C(C)(C)N1[O]`: “T1 relaxation time” 1470 ms (MRI, MSME; wild-type mice, brain; iv, 3 mg/kg, 24 h).
The blood glucose of `CO[C@H]1C[C@@H]2CC[C@@H](C)[C@@](O)(O2)C(=O)C(=O)N2CCCC[C@H]2C(=O)O[C@H]([C@H](C)C[C@@H]2CC[C@@H](O)[C@H](OC)C2)CC(=O)[C@H](C)/C=C(\C)[C@@H](O)[C@@H](OC)C(=O)[C@H](C)C[C@H](C)/C=C/C=C/C=C/1C` is reported as 104 mg/dL (oral glucose tolerance test; healthy adult horses; IV, 0.06 mg/kg, 0 min, test 4 h after single dose).
Under “pathway activation z-score”, `Cn1cc(Nc2nccc(-c3ccc4c(c3)CN(C3COC3)CC[C@H]4NC(=O)c3cn(C(C)(C)C)nn3)n2)cn1` is recorded as 2.12 (measured: Natural Killer Cell Signaling; splenic B cells, Mus musculus; 30 mg/kg, added: IgD activation; baseline: vehicle, direction not given).
For `COc1cc(F)c([C@@H]2CNC(=O)[C@H]2NC(=O)Nc2ccccc2)c(F)c1`, “mean arterial pressure” read 106 ± 10 mmHg (terminal haemodynamics; rat, permanent coronary occlusion MI; 1 mg/kg, 1008 h, 6 weeks post-MI).
For `O=S1(=O)CC(O)c2ccccc21` (stereo not shown), the IC50 was greater than 125 µM (CoA-CPM signal reduction, CPM fluorescence thiol; cell-free biochemical; assay interference counter-screen, added: CoA replacing acetyl-CoA).
`N#CCC1CCN(c2nc(Nc3ccc(N4CCC(O)CC4)cc3)c3c(=O)[nH]ncc3n2)CC1`: “IL-18 level change” -1.02 (Olink multiplex; human, serum; 20 mg, day 29, unit not given; baseline: baseline).
`COc1ccc(-c2ncn(S(=O)(=O)c3cc(C(F)(F)F)cc(C(F)(F)F)c3)n2)cc1` — result for “pseudo-first-order rate constant”: 1.3 h⁻¹ (HPLC-MS; pH 10.2, added: 50 mM N-α-acetyl-lysine).
For `C[C@@H]1CCC[C@H](n2cnc(-c3cc(Cl)ccc3-n3cc(Cl)nn3)cc2=O)c2cc(ccn2)-c2c(cnn2C(F)F)NC1=O`, “concentration for aPTT prolongation” read 1200 nM (cynomolgus monkey plasma; IC2× aPTT, Actin FS reagent).
With `CC(=O)N[C@@H](CC(N)=O)C(=O)N[C@@H](CCCNC(=N)N)C(=O)N[C@@H](CC(C)C)C(=O)N[C@H]1CSSC[C@@H](C(=O)N[C@H](C(N)=O)[C@@H](C)O)NC(=O)[C@H](CCCNC(=N)N)NC(=O)[C@H](Cc2c[nH]cn2)NC(=O)[C@H](C)NC(=O)CNC(=O)[C@H](Cc2c[nH]c3ccccc23)NC(=O)[C@H](CC(=O)O)NC(=O)[C@H](CCC(N)=O)NC(=O)[C@H](Cc2c[nH]c3ccccc23)NC(=O)[C@H](C(C)C)NC1=O` the IC50 was 0.53 ± 0.04 µM (complement activation, inhibitor, ELISA, measured: C3b; normal human serum).
`N#Cc1ccc2c(-c3ccncc3)c(-c3ccc(F)cc3)nn2c1`: “log2 fold change” 0.306 (kinase binding, competitor, MIB/MS competition, measured: CMK1; Candida albicans cell lysate; 10 µM; baseline: DMSO).
`CN(C)C(=O)c1cc2cnc(Nc3ccc(N4CCNCC4)cn3)nc2n1C1CCCC1` — result for “normalized enrichment score”: -1.2 (RNA-seq GSEA, measured: HALLMARK_HEME_METABOLISM; MB002 tumour; concentration not given, in vivo; baseline: vehicle, direction not given).
With `O=C(O)CNC(=O)Cc1ccccc1` the sarcomere length was 1.63 µm (ventricular cardiomyocytes, C57BL/6 mouse; dose not given, 0.504 s).
`O=[N+]([O-])c1c(Sc2ccc(Cl)cc2)ccc2nsnc12` gave an IC50 of greater than 125 µM (CoA-CPM signal reduction, CPM fluorescence thiol; cell-free biochemical; assay interference counter-screen, added: CoA replacing acetyl-CoA).
The F4/80+ cells of `Cc1ncsc1-c1ccc(CNC(=O)[C@@H]2C[C@@H](O)CN2C(=O)[C@@H](NC(=O)C2(C#N)CC2)C(C)(C)C)cc1` is reported as 46.4% (flow cytometry; bone marrow-derived macrophages, UT+/+, mouse; dose not given).
`COc1ccccc1[C@H](Cn1c(=O)n(C(C)(C)C(=O)O)c(=O)c2c(C)c(-c3ncco3)sc21)OC1CCOCC1` — result for “fractional hepatic DNL”: 5.74 % new palmitate ([1-13C]acetate infusion, isotopomer analysis; overweight or obese healthy men, plasma VLDL-TG palmitate; oral, 200 mg single dose, 3 h post-dose, added: oral fructose).
`O=[N+]([O-])c1cccc(S(=O)(=O)Nc2ccc(O)c(Br)c2)c1` has an IC50 of greater than 125 µM (CoA-CPM signal reduction, CPM fluorescence thiol; cell-free biochemical; assay interference counter-screen, added: CoA replacing acetyl-CoA).
For `CCNc1nc2c(c(N3CC(=O)Nc4cc(OC)ccc43)n1)CCC2`, “cleaved caspase-3 level” read “increased” (immunohistochemistry; mouse, A-375/TxR xenograft, tumour; 2 or 4 mg/kg; baseline: control).
The IC50 of `CC(C)(C)c1nsc(N)n1` is reported as greater than 125 µM (CoA-CPM signal reduction, CPM fluorescence thiol; cell-free biochemical; assay interference counter-screen, added: CoA replacing acetyl-CoA).
For `Cc1cn(-c2ccc3n(c2=O)CCN([C@@H](C)[C@@H]2CC[C@H](c4cc(F)c(Cl)cc4C(F)(F)F)O2)C3=O)cn1`, “maximum CSF Aβ42 change” read -38.9% (human, CSF; 300 mg single dose, serial CSF sampling; baseline: placebo and baseline).
`C[C@H](Oc1ccc(Br)cc1-c1ccon1)C(=O)O`: “maximum voluntary grip contraction” 1.81 kg (handgrip dynamometry; healthy human males; 400 mg once daily, multiple doses; baseline: placebo).
The inhibition of `O=C1O[C@H]([C@@H](O)CO)C(O)=C1O` is reported as 65.6% (hydroxyl radical scavenging; 200 µM).
Under “total urinary corticosteroids”, `N#Cc1ccc2c(c1)[C@H]1CCCN(C(=O)c3ccc4[nH]cnc4c3)[C@H]1C2` is recorded as 111 % change (human, urine; 360 mg, 24 h, day 1 over day -1; baseline: placebo and baseline).
The IC50 of `O=C1CC(N2CCN(c3ncccn3)CC2)C(=O)N1c1cc(Cl)cc(Cl)c1` (stereo not shown) is reported as greater than 125 µM (CoA-CPM signal reduction, CPM fluorescence thiol; cell-free biochemical; assay interference counter-screen, added: CoA replacing acetyl-CoA).
For `OC(CCN1CCCCC1)(c1ccccc1)C1CC2C=CC1C2` (stereo not shown), “change, Alpha EEG power, in O2-Pz” read -12.7% (resting-state EEG; healthy elderly humans; oral, 4 mg, eyes open, LS mean; baseline: baseline).
`Cn1cc([C@H]2C[C@H]3CSC(N)=N[C@@]3(c3ccc(F)cc3F)CO2)cn1` — result for “brain Aβ40 level”: 2.5 ng/g (measured: Aβx-40; wild-type mouse, brain; subcutaneous, 10 mg/kg, 1 h).
`Cl.N[C@@H](Cc1ccc(Oc2nnc(-c3ccccc3)nn2)cc1)C(=O)O` has a kobs of 0.15 s⁻¹ (iEDDA cycloaddition; aqueous DMSO 25 %; 37 °C, added: TCO-OH 2.2 mM).
For `CC(C)c1c(C(=O)Nc2ccccc2)c(-c2ccccc2)c(-c2ccc(F)cc2)n1CC[C@@H](O)C[C@@H](O)CC(=O)O`, the triglycerides was 37.8 mg/dL (cynomolgus monkey, male, serum; 40 mg/kg or 25 mg/kg, day 86, 2064 h).
Under “maximum prothrombin time”, `C[C@@H](NC(=O)N1C(=O)[C@H](Cc2ccnc(N)c2)[C@H]1C(=O)O)C1CCCCC1` is recorded as 13.7 s (human, plasma; continuous intravenous infusion, 2.25 mg/kg/h, days 1 to 6 of 5-day infusion, mean).
With `CN(c1ccccc1)c1nc(-c2ccccc2)no1` the IC50 was greater than 125 µM (CoA-CPM signal reduction, CPM fluorescence thiol; cell-free biochemical; assay interference counter-screen, added: CoA replacing acetyl-CoA).
With `CCCCCC(=O)N1CCC[C@H]1C(=O)N[C@@H](CCC1CCCCC1)C(=O)N[C@@H](CC(C)C)C(=O)NC(C)(C)C(=O)N[C@@H](CC(C)C)C(=O)N[C@@H](CC(C)C)C(=O)NC(C)(C)C(=O)NC(C)(C)C(=O)NCCC(=O)N[C@@H](C)CN(C)C` the calcein leakage was 29.5% (small unilamellar vesicles; concentration not given).
`C=CC(=O)Nc1cc(Nc2nccc(Nc3cc(Cl)c(F)cc3C(C)(C)O)n2)c(OC)cc1N1CC[C@@H](N(C)C)C1`: “confirmed objective response rate” 0% (human, EGFR exon20ins NSCLC; dose not given, unknown subtype).
Under “log2 fold change”, `Cc1n[nH]c2ccc(-c3cc(OC[C@@H](N)Cc4ccccc4)cnc3-c3ccoc3)cc12` is recorded as -0.351 (kinase binding, competitor, MIB/MS competition, measured: ENV7; Candida albicans cell lysate; 100 nM; baseline: DMSO).

Excerpt of the above:
`N#Cc1ccc2c(-c3ccncc3)c(-c3ccc(F)cc3)nn2c1`: “log2 fold change” 0.306 (kinase binding, competitor, MIB/MS competition, measured: CMK1; Candida albicans cell lysate; 10 µM; baseline: DMSO).
`CN(C)C(=O)c1cc2cnc(Nc3ccc(N4CCNCC4)cn3)nc2n1C1CCCC1` — result for “normalized enrichment score”: -1.2 (RNA-seq GSEA, measured: HALLMARK_HEME_METABOLISM; MB002 tumour; concentration not given, in vivo; baseline: vehicle, direction not given).
With `O=C(O)CNC(=O)Cc1ccccc1` the sarcomere length was 1.63 µm (ventricular cardiomyocytes, C57BL/6 mouse; dose not given, 0.504 s).
`O=[N+]([O-])c1c(Sc2ccc(Cl)cc2)ccc2nsnc12` gave an IC50 of greater than 125 µM (CoA-CPM signal reduction, CPM fluorescence thiol; cell-free biochemical; assay interference counter-screen, added: CoA replacing acetyl-CoA).
